Measured values collected from several papers.
Every numbered part comes from another study and shows a few of its results, in no order. Substitutions count along the parent as printed.

Series 1 — target: CCNA2, cyclin fold, Cln2 fusion (human); technique: yeast growth competition, sequencing; sample: yeast; notes: strong parent motif; reference: not given; direction: higher = stronger binding
Starting sequence: PKN2 docking peptide (human); VSAVRKLDFSDTM
Variant | normalised enrichment score
VSALRKLDFSDTM [V4L] | 4.73
VSAVRKLDHSDTM [F9H] | 0.000185
VSAMRKLDFSDTM [V4M] | 5.21
VSAVRKLIFSDTM [D8I] | 5.07
VSAVRKLDFYDTM [S10Y] | 5.18
VSAVRKLDFEDTM [S10E] | 5.11
VSAVRKIDFSDTM [L7I] | 4.21
VSAVRKLDFSDEM [T12E] | 5.31
VSAVRKLSFSDTM [D8S] | 4.66
VSAVRMLDFSDTM [K6M] | 4.75
VSASRKLDFSDTM [V4S] | 5.61
VSAVRKLLFSDTM [D8L] | 4.38
VSAVRGLDFSDTM [K6G] | 2.66
VSAVRKLDFSWTM [D11W] | 4.45
VSAVRKLDMSDTM [F9M] | 2.69
VSAVRKFDFSDTM [L7F] | 0.0579
VSAVMKLDFSDTM [R5M] | 3.06
VSAVDKLDFSDTM [R5D] | -0.369
VTAVRKLDFSDTM [S2T] | 5.48
VSAVPKLDFSDTM [R5P] | -0.21
VSAVRKLDFSDSM [T12S] | 5.41
VSFVRKLDFSDTM [A3F] | 4.78
VSAGRKLDFSDTM [V4G] | 3.6
VSAVRKLDFDDTM [S10D] | 5.45
VSAVRVLDFSDTM [K6V] | 4.36

Series 2 — technique: protein binding microarray; molecule type: double-stranded DNA, one strand shown; sample: in vitro; tested at: not given; reference: not given; direction: higher = stronger binding
Target: Histone acetyltransferase KAT6A, winged helix 2, GST fusion (KAT6A, Homo sapiens, UniProt Q92794, residues 85-181)
Notes: 8-mer, flanks averaged, mean of 2 arrays, mostly near background
Residues (chain): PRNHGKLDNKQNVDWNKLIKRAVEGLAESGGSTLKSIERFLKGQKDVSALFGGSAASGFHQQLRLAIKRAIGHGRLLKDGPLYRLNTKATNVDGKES
Sequence | E-score
CTAAAGTC | -0.124
AAAACTCC | 0.00962
ATTATAAA | 0.0509
ACTTGATC | -0.097
ATCAGACC | -0.156
ATAACGGC | 0.165
GAGGTTAA | 0.0362
ACTAGGAC | -0.154
ATTGGAGG | -0.182
CGATGAGC | 0.148
GATTCCAA | 0.0881
CTGTGTGC | 0.0187
TATATTCA | -0.0173
AACTCGCA | 0.146
CTAATATA | -0.138
CCATGCAC | -0.0572
ACCCTGCA | 0.172
AGCACATA | 0.0218
AAGCCGGG | 0.172
CCTATATA | -0.181
TTAAATAA | 0.112
ACATTGCC | -0.0993
GCACCACC | 0.171
AATCCTTA | -0.0419
GGGCTGCA | 0.0516

Series 3 — technique: DHFR PCA, deep sequencing; sample: yeast; together with: (+)-ABA 0.11 µM; reference: wild-type fitted maximum; direction: higher = stronger binding
Target: ABI1, truncated, D143A, DHFR fusion (Arabidopsis thaliana)
Notes: methotrexate growth selection, single substitutions
Starting sequence: PYL1, truncated, DHFR fusion (Arabidopsis thaliana); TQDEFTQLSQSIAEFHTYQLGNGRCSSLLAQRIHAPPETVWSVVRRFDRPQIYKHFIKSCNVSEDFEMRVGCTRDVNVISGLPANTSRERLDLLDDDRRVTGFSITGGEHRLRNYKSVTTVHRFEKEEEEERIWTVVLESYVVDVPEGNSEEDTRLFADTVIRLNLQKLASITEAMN; partner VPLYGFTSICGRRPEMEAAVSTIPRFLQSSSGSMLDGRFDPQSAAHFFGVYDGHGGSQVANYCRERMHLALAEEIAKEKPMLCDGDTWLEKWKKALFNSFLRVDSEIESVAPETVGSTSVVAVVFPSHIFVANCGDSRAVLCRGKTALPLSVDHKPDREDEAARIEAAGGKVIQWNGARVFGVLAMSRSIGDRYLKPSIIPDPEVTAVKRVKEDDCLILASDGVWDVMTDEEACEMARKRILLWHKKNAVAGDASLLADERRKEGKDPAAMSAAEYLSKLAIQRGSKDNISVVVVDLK
Variant | relative binding score [%]
F103S | -1.86
P83D | 5.37
D144E | 2.99
F5S | 7.7
T173W | -10.8
S80I | 28.5
N165M | 4.54
E67T | 25.7
V78S | 14.3
Y115R | -4.67
T106E | 11.2
L20W | 3.92
L138D | 5
I162V | 47.7
R32K | 35.4

Series 4 — technique: protein-binding microarray; molecule type: double-stranded DNA, one strand shown; sample: in vitro; tested at: 2540 nM top; notes: 60-bp whole probe; together with: salmon DNA 0.4 mg/ml; reference: random background probes; direction: higher = stronger binding; all sequences stand within: GCCTAGCAC … GTCTTGATTCGCTTGACGCTGCTG
Target: Interferon regulatory factor 3, full length, phosphomimetic (IRF3, Homo sapiens, UniProt Q14653, residues 1-427, S386D/S396D/S398D/S402D/T404D/S405D)
Target sequence (chain): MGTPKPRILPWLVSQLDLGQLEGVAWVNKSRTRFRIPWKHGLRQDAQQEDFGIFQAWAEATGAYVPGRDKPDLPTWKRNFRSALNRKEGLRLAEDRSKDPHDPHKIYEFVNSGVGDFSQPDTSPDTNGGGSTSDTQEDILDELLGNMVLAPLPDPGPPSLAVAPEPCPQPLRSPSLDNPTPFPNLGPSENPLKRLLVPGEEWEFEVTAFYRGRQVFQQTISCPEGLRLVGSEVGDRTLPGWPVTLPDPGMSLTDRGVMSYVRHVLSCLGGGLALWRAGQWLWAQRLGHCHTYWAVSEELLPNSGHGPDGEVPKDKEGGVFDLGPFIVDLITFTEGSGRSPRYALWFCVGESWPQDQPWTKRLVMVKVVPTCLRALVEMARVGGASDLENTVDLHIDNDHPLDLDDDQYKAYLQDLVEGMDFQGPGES
Sequence | fitted relative affinity [z-score]
GACGGTTACGGACTGGGGACGTGCTAG | 0.0676
GACGGACTGCTTCCCCTGACGTGCTAG | -0.275
TCATGTGCCCATCTCTGACTGTGCTAG | 1.22
TCAATCATCCGTTTCTTACTGTGCTAG | 1.7
AGGAAGATCATTCTCACTGCGTGCTAG | 0.737
GACGGACTGGACTATCTGGACGTGCTA | -0.358
GACAGTTTCGACACTGGGGACGTGCTA | 2.89
GACGGTCTCCTTTTCATGACGTGCTAG | 4.48
TTAGGTTTCGGTTATCGGTTAGTGCTA | 7.81
GACTGTTTCGGTATCGGGACGTGCTAG | 7.46
TCATATATATATTATATAACTGTGCTA | 0.784
GACGATCTCAGTATCAAGACGTGCTAG | 0.74
TTAGGTATTGGGTATCGGTTAGTGCTA | 0.606
TCAGCTCTTGTTTTCACACTGTGCTAG | 0.613
GACAATTTCGGGTTTCGAGACGTGCTA | 2.83
TCAAGTTTCTTTTCTTTACTGTGCTAG | 6.37
GACGATATCAGGCTGGAGACGTGCTAG | -0.167
GACGATCTCAGTATCGAGAAGTGCTAG | 0.829
TCATTCATGAAGTTTTAAACTGTGCTA | 0.379
CGGGCTTTCCCGTCCAGGGCGTGCTAG | 0.0167
GGCGATCTCAGACTGGAGACGTGCTAG | -0.233
TCAGCTTTGTGCCTAGCACTGTGCTAG | -0.327
TTAGAACTGAGTATCCATTAGTGCTAG | 0.84
TTAGGACGGGGGACTGGGTTAGTGCTA | -0.432
TTAGGTTACGGGTTTCGGTTAGTGCTA | 2.8

Some of these lines once more (series 3):
Variant | relative binding score [%]
E67T | 25.7
I162V | 47.7
S80I | 28.5
L20W | 3.92
D144E | 2.99
F5S | 7.7
